Measurements collected from several papers.
Each line is one published result; not all experiments were run side by side. Values joined by “and” are separate records of one study, mostly repeats; a detail may differ. Numbers after ± are the reported error.

SMILES	target or system	test	system	setting	scale	quantity	result
CC(C)NCCCn1c(Sc2cc3c(cc2I)OCO3)nc2c(N)ncnc21	–	–	human	300 mg/m^2	–	time since remission	> 450 days
CC(C)C[C@H](N)C(=O)N[C@@H](CCC(=O)O)C(=O)N[C@@H](CCC(=O)O)C(=O)N[C@@H](CCCCN)C(=O)N[C@@H](CCCCN)C(=O)N[C@@H](Cc1ccc(O)cc1)C(=O)N[C@@H](CC(N)=O)C(=O)N[C@@H](Cc1ccc(O)cc1)C(=O)N[C@H](C(=O)N[C@H](C(=O)N[C@H](C(=O)N[C@@H](CC(=O)O)C(=O)N[C@@H](Cc1c[nH]cn1)C(=O)O)[C@@H](C)O)C(C)C)C(C)C	–	–	mouse, GL261/vIII intracranial glioma	subcutaneous, 100 µg, days 0, 7, 14, together with: Montanide	–	median survival	42 days
O=C1NC2(CC2)COc2ncc(F)cc2[C@H]2COCCN2c2ccn3ncc1c3n2	–	–	Sprague-Dawley rat, female, adrenals	oral, 2.5 mg/kg/day, 4 weeks, end of treatment	–	organ-to-body weight ratio	0.022 ± 0.003%
CCc1nnc(-c2c(OC)cc(-c3cnc4cc(-c5cnn(C)c5)ccn34)cc2OC)o1	–	histomorphometry	male C57BL/6J mouse, tibia	oral gavage, 10 mg/kg once daily, 3 wk	–	osteoid surface/bone surface	2.3 ± 0.597%
O=C(O)c1ccc(-c2nc(-c3ccccc3Cl)c3sccn23)cc1	–	DCPIP reduction	K562 cell lysate	10 µM, 60 min	–	DR activity	0.0492 OD/min and 0.0472 OD/min
COC(=O)[C@@H](NC(=O)c1nn(Cc2ccc(F)cc2)c2cc(OCCCCNC(=N)N)ccc12)C(C)(C)C	–	mechanical allodynia	mouse SNI neuropathic pain model	intraperitoneal, dose not given	–	time to peak effect	1 h
CC(C)C[C@H](NC(=O)[C@H](CC(=O)O)NC(=O)CNC(=O)[C@@H](N)CCCNC(=N)N)C(=O)N[C@@H](C)C(=O)N[C@H](C(=O)N[C@@H](CC(C)C)C(=O)N[C@@H](CCCNC(=N)N)C(=O)N[C@@H](CCC(N)=O)C(=O)N[C@@H](CC(C)C)C(=O)N[C@@H](C)C(=O)N[C@@H](CCC(N)=O)C(=O)N[C@@H](CCC(=O)O)C(=O)N[C@@H](CC(=O)O)C(=O)NCC(=O)N[C@H](C(=O)N[C@H](C(=O)NCC(=O)N[C@H](C(=O)N[C@@H](CCCNC(=N)N)C(=O)NCCOCCOCCOCCOCCOCCOCCOCCOCCOCCOCCOCCOCCC(=O)N[C@@H](CS)C(N)=O)C(C)C)C(C)C)C(C)C)[C@@H](C)O	–	phage binding	NSCLC cell line panel	selectivity at least 20	–	number of cell lines	18
CCCCCC1=C(NCC)C(=O)C(C/C=C(\C)CCC=C(C)C)=C(O)C1=O	–	RNA-Seq, measured: Ifit1 mRNA	mice, AAV9-A53T α-synuclein lesion, lesioned striatum	oral, dose not given	reference: vehicle-treated lesioned mice	log2 fold change	1.48
Cc1ccc(C2=CC(C)(C)Oc3ccc(-c4ccc(-c5ccc(C(=O)O)cc5)[nH]4)cc32)cc1	–	histology	CD1 mouse male, testis	10 mg/kg/day for 4 weeks, 1 day after end of dosing	–	spermatids failing translocation	15.9%
C#CC(C)(C)C(=O)SCCOP1(=O)OCC2OC(n3cnc4c(N)ncnc43)CC2OP(=O)(OCCSC(=O)C(C)(C)C#C)OCC2OC(n3cnc4c(N)ncnc43)CC2O1 (centres unmarked)	–	–	mouse CT26 tumour model	dose not given, 2160 h	–	tumour-free survivors resisting rechallenge	100%
COc1ccccc1-c1n[nH]c2nc(NC3CCN(C(=O)Cc4ccc(F)cc4F)CC3)ncc12	–	bead binding, competition bead pull-down, measured: LMJF.21.0015	Leishmania donovani extract	10 µM	reference: vehicle	relative abundance	1.11
CC(C)C[C@@H]1NC(=O)[C@@H](Cc2c[nH]c3ccccc23)NC(=O)[C@H](CCCNC(=N)N)NC(=O)[C@@H](CCC(=O)O)NC(=O)[C@H](CCC(N)=O)NC(=O)[C@@H](CCC(=O)O)NC(=O)[C@H](CCCNC(=N)N)NC(=O)[C@@H](Cc2c[nH]c3ccccc23)NC1=O	–	Luminex, measured: MIP-1beta	LDLr-/- mouse, Western diet, liver	dose not given, 4 weeks	–	CCL4 level	3000 ± 1800 pg/g tissue
CCn1cc(-c2cc([C@@H](C)NC(=O)c3cc(OCCN(C)C)ccc3C)c3ccccc3n2)c(C(F)(F)F)n1	Vero E6	–	–	7.812 µM	–	viability	111% and 105%
CC(C)(C)C(=O)OCOP(=O)(OCOC(=O)C(C)(C)C)C1CCCN(O)C1=O (centres unmarked)	HCC 2998	–	–	–	–	CC50	93.9 µM
Cc1ccc(OCCN(C)C)cc1C(=O)N[C@H](C)c1cc(-c2ccnn2C)nc2ccccc12	Vero E6	–	–	31.25 µM	–	viability	91.2%
O=C(NCc1cc(F)cc(F)c1)[C@@]1(O)CCN(c2ccc3[nH]ccc3c2)C1=O	–	–	sample A PDX mouse	dose not given, RTV endpoint 500%	–	median survival time	> 80 days
COc1ccccc1-c1n[nH]c2nc(N[C@H]3CC[C@H](NS(=O)(=O)CC(C)C)CC3)ncc12	–	bead binding, competition bead pull-down, measured: LINJ.36.5330	Leishmania donovani extract	10 µM	reference: vehicle	relative abundance	1.68

A few entries again:
SMILES	target or system	test	system	setting	scale	quantity	result
CCc1nnc(-c2c(OC)cc(-c3cnc4cc(-c5cnn(C)c5)ccn34)cc2OC)o1	–	histomorphometry	male C57BL/6J mouse, tibia	oral gavage, 10 mg/kg once daily, 3 wk	–	osteoid surface/bone surface	2.3 ± 0.597%
Cc1ccc(C2=CC(C)(C)Oc3ccc(-c4ccc(-c5ccc(C(=O)O)cc5)[nH]4)cc32)cc1	–	histology	CD1 mouse male, testis	10 mg/kg/day for 4 weeks, 1 day after end of dosing	–	spermatids failing translocation	15.9%
C#CC(C)(C)C(=O)SCCOP1(=O)OCC2OC(n3cnc4c(N)ncnc43)CC2OP(=O)(OCCSC(=O)C(C)(C)C#C)OCC2OC(n3cnc4c(N)ncnc43)CC2O1 (centres unmarked)	–	–	mouse CT26 tumour model	dose not given, 2160 h	–	tumour-free survivors resisting rechallenge	100%
